Assay results pooled from the literature.
Lines come from different studies, so protocols differ. ± marks the error that the study gave.

Structure (SMILES)	tested on	test	test system	setting	how to read	endpoint	value
CN(C)c1ccc(-c2nc3ccc(OCCCCCN4CCN5CCN(CC4)CC(=O)[O][Al]([18F])[O]C(=O)C5)cc3s2)cc1			ICR mouse, brain	intravenous, 30 min		tissue uptake	0.12 ± 0.1 %ID/g
OCc1cn(Cc2ccc(-c3noc(-c4ccc(OCC[18F])c(C(F)(F)F)c4)n3)cc2)nn1			female Lewis rat, fat	intravenous, 5 min		tissue uptake	0.51 ± 0.22 %ID/g
O=C(O)C1CN(Cc2ccc(-c3noc(-c4ccc(OCC[18F])c(C(F)(F)F)c4)n3)cc2)C1			male Sprague-Dawley rat, blood	intravenous, 5 min		tissue uptake	0.304 ± 0.058 %ID/g
CC[C@H]1[C@@H](O)[C@@H]2[C@H](CC[C@]3(C)[C@@H]([C@H](C)CCOS(=O)(=O)[O-])CC[C@@H]23)[C@@]2(C)CC[C@@H](O)C[C@@H]12.[Na+]			ob/ob NASH mice, plasma	oral, 10 mg/kg once daily, baseline before treatment, 8 wk study		plasma triglycerides	0.8 ± 0.1 mmol/L
[64Cu+2].c1cnc(CNCc2ccc(CN3CCCN4CCNCCCN(CC4)CC3)cc2)nc1	CXCR4		NOD/SCID mouse, U87 and U87-stb-CXCR4 xenografts, liver	iv, 450 min, ex vivo		tissue uptake	79.8 ± 7.16 %ID/g
O=C([O-])CN1CCN(CC(=O)[O-])CCN(CC(=O)NCCc2ccc3c(c2)C2C=CCC2C(c2cc4c(cc2Br)OCO4)N3)CCN(CC(=O)[O-])CC1.[111In+3] (stereo not drawn)			mouse, Hec50 endometrial tumour, spleen	4 h post injection		tissue uptake	0.36 ± 0.1 %ID/g
O=Cc1c(O)ccc2ccccc12	HUVEC	RNA sequencing, refers to: LXN		75 µM, 24 h	relative to: DMSO	log2 fold change	-2.89
CC(C)[C@H](NC(=O)[C@@H]1CCCN1C(=O)[C@H](CCCNC(=N)N)NC(=O)[C@H](CS)NC(=O)[C@H](Cc1c[nH]c2ccccc12)NC(=O)[C@H](CCCNC(=N)N)NC(=O)[C@@H](Cc1ccccc1)NC(=O)[C@H](Cc1c[nH]cn1)NC(=O)[C@H](CCC(=O)O)NC(=O)[C@H](CS)NC(=O)[C@H](CS)NC(=O)[C@@H]1CC(=O)N[C@@H](CCCNC(=N)N)C(=O)NCC(=O)N[C@@H](CC(=O)O)C(=O)N[C@H](Cc2ccc(O)cc2)C(=O)N1)C(N)=O [technetium-99m labelled]			C57 mouse, female, B16/F1 melanoma, tumor	intravenous, 0.037 MBq, 4 h		tissue uptake	12.1 ± 1.45 %ID/g
CCCC[C@H](NC(=O)CNC(=O)CNC(=O)CN1CCN(CC(=O)O)CCN(CC(=O)O)CCN(CC(=O)O)CC1)C(=O)N[C@H]1CC(=O)NCCCC[C@@H](C(N)=O)NC(=O)[C@H](Cc2c[nH]c3ccccc23)NC(=O)[C@H](CCCNC(=N)N)NC(=O)[C@@H](Cc2ccccc2)NC(=O)[C@H](Cc2c[nH]cn2)NC1=O [copper-64 labelled]			female C57 mouse, B16/F1 melanoma, blood	intravenous, 0.037 MBq, 24 h		tissue uptake	1.07 ± 0.17 %ID/g
CC(C)[C@H](NC(=O)[C@@H]1CCCN1C(=O)[C@H](CCCNC(=N)N)NC(=O)[C@H](CS)NC(=O)[C@H](Cc1c[nH]c2ccccc12)NC(=O)[C@H](CCCNC(=N)N)NC(=O)[C@@H](Cc1ccccc1)NC(=O)[C@H](Cc1c[nH]cn1)NC(=O)[C@H](CCC(=O)O)NC(=O)[C@H](CS)NC(=O)[C@H](CS)NC(=O)CNC(=O)[C@@H]1CC(=O)N[C@@H](CCCNC(=N)N)C(=O)NCC(=O)N[C@@H](CC(=O)O)C(=O)N[C@H](Cc2ccc(O)cc2)C(=O)N1)C(N)=O [technetium-99m labelled]			C57 mouse, female, B16/F1 melanoma, liver	intravenous, 0.037 MBq, 0.5 h		tissue uptake	3.44 ± 0.73 %ID/g
CCCC[C@H](NC(=O)CNC(=O)CNC(=O)CN1CCN(CC(=O)O)CCN(CC(=O)O)CC1)C(=O)N[C@H]1CC(=O)NCCCC[C@@H](C(N)=O)NC(=O)[C@H](Cc2c[nH]c3ccccc23)NC(=O)[C@H](CCCNC(=N)N)NC(=O)[C@@H](Cc2ccccc2)NC(=O)[C@H](Cc2c[nH]cn2)NC1=O [copper-64 labelled]			female C57 mouse, B16/F1 melanoma, liver	intravenous, 0.037 MBq, 2 h		tissue uptake	0.69 ± 0.06 %ID/g
NS(=O)(=O)c1ccc(NC(=O)NN[C@@H]2O[C@H](CO)[C@@H](O)[C@H](O)[C@@H]2O)cc1	rabbit erythrocytes			16 µg/mL, 3 h	relative to: complete lysis	hemolysis	0%
